{"data": "Measured values pooled from the literature", "note": "Every numbered part comes from another study and shows a few of its results, in no order."}
{"data": "Block 1", "target": "Fragile X messenger ribonucleoprotein 1, C-terminal low-complexity region (Fmr1, Mus musculus, UniProt P35922)", "method": "RNA Bind-n-Seq", "form": "RNA", "matrix": "in vitro", "concentration": "200 nM", "setting": "whole 134-nt RNA, ends assumed", "added": "150 mM LiCl", "reference": "input library", "direction": "higher = stronger binding", "each molecule": "7-deaza-guanosine replaces G"}
{"Oligonucleotide": "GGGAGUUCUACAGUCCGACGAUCGUCCUGUGCUACACAUCGUAUGUACCGAAUCGGGGAGGGGAAAAAGGGGUUUUUGGGGAAAGUAUUAUGUUACGCCGUUCGGAUCUGCACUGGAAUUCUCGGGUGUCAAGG", "log2 enrichment": 0.19}
{"Oligonucleotide": "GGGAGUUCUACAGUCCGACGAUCUCCUCAAGUCCUGUGCUACACAUCGUAUGUACCGAAUCGGAGGGAGGAGGGAAAGUAUUAUGUUACGCCGUUCGGAUCUGCACUUCCAGCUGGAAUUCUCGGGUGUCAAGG", "log2 enrichment": -1.77}
{"Oligonucleotide": "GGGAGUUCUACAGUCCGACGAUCUGGAGCACAGGGCGAGCUCUCCUCCGCCCUGCAGCCUCAGGUAAGGAUCCGGACCUUCACUGCUGCCCCAACUGGGGCUCCUCAGCUCGGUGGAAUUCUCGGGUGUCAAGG", "log2 enrichment": -0.482}
{"Oligonucleotide": "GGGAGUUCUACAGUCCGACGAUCAAGGCACGUAAGUUUAAGCUUUUUUUUUUUUUAAGUUAAUGGGAAAAAUUUGAGACGCAAUACCAAUACUUAGGAUUUUGGUCUUGGUGUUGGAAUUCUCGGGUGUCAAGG", "log2 enrichment": 0.428}
{"Oligonucleotide": "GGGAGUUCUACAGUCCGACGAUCCACAGACAACUCGCACCCACACAGACACAGAGGGAAGGGGUUGGGAUGGGGACAGGGUGCACAGCAGGGCGGGGUAGGACCCCAGCCCCUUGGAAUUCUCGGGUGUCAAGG", "log2 enrichment": 0.0105}
{"Oligonucleotide": "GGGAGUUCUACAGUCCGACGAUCUCCUGUGCUACACAUCGUAUGUACCGAAUCGGGUUUUUGGGUUUUUGGGAAAAAAAGGGAAAGUAUUAUGUUACGCCGUUCGGAUCUGCAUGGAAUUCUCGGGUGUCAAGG", "log2 enrichment": -0.823}
{"Oligonucleotide": "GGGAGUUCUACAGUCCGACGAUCUCCUGUGCUACACAUCGUAUGUACCGAAUCGGGAAAAAAAGGGAAAAAGGGAAAAAGGGAAAGUAUUAUGUUACGCCGUUCGGAUCUGCAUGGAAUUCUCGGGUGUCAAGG", "log2 enrichment": 0.368}
{"Oligonucleotide": "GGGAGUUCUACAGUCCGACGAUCAGUCCUGUGCUACACAUCGUAUGUACCGAAUCGGAAAAAAAGGAAAGGUUUUUUUGGAAAGUAUUAUGUUACGCCGUUCGGAUCUGCACUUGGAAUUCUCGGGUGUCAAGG", "log2 enrichment": -3.29}
{"Oligonucleotide": "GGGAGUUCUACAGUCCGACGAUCCACAGACAACACGCUCCCACACAGACACAGAGGGAAGGGGUUGGGAUGGGGACAGGGUGCACAGCAGGGCGGGGUAGGACCCCAGCCCCUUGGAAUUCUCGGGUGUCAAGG", "log2 enrichment": 0.571}
{"Oligonucleotide": "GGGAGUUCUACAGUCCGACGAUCAGUCCUGUGCUACACAUCGUAUGUACCGAAUCGGGGUUUUUUUGGGGAGGGGAGGGGAAAGUAUUAUGUUACGCCGUUCGGAUCUGCACUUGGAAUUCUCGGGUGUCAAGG", "log2 enrichment": 0.157}
{"data": "Block 2", "target": "Sal-like protein 4, full length isoform A (SALL4, Homo sapiens, UniProt Q9UJQ4, residues 1-1053)", "method": "universal PBM", "form": "double-stranded DNA, one strand shown", "matrix": "in vitro", "concentration": "600 nM", "setting": "8-mer, flanks averaged, mean of replicates", "direction": "higher = stronger binding", "sequence of UniProt Q9UJQ4 (whole entry, looked up)": "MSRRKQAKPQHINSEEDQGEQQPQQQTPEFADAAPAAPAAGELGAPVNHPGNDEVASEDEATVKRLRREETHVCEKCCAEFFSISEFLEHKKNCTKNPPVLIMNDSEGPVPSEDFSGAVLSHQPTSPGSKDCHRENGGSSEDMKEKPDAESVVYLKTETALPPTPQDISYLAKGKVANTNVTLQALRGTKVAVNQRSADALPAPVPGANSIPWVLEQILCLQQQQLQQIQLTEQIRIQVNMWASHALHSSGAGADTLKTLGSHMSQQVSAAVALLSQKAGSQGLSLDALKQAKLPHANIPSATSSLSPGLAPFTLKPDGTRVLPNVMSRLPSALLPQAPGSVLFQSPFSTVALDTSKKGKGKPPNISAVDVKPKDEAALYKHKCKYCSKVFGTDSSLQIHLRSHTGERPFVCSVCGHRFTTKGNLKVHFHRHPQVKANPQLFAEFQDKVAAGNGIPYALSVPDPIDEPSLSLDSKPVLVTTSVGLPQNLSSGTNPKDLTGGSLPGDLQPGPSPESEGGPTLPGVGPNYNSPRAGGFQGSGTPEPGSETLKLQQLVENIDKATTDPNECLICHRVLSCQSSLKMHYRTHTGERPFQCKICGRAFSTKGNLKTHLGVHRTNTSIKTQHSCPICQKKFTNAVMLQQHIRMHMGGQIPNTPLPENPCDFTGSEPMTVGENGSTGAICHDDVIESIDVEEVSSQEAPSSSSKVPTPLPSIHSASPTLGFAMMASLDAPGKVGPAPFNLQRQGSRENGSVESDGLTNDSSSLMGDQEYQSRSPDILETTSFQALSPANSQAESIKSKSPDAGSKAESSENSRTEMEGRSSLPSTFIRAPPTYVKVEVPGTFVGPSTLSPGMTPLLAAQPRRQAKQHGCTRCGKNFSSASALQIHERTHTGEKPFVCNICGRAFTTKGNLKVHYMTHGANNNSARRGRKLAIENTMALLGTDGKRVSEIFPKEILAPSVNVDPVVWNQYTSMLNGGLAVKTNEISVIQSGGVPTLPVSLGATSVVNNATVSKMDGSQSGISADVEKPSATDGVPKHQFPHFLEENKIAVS"}
{"Oligonucleotide": "AGTGGGGA", "E-score": -0.164}
{"Oligonucleotide": "CGACATGA", "E-score": -0.0186}
{"Oligonucleotide": "CAGTGTGA", "E-score": 0.00027}
{"Oligonucleotide": "GACAAACA", "E-score": -0.0762}
{"Oligonucleotide": "ACGATTAA", "E-score": 0.243}
{"Oligonucleotide": "ACAAGTTA", "E-score": 0.178}
{"Oligonucleotide": "CCACTGGG", "E-score": -0.399}
{"Oligonucleotide": "GGAGATAC", "E-score": -0.227}
{"Oligonucleotide": "CCACGCGA", "E-score": -0.158}
{"Oligonucleotide": "ACACCAAG", "E-score": 0.0084}
{"Oligonucleotide": "AATTTCTA", "E-score": 0.304}
{"Oligonucleotide": "CAAGGTAA", "E-score": 0.113}
{"Oligonucleotide": "CGTTTTGA", "E-score": 0.176}
{"Oligonucleotide": "GCCGACCA", "E-score": -0.315}
{"data": "Block 3", "target": "RNA binding protein fox-1 homolog 2, RRM domain, GST-SBP tag (RBFOX2, Homo sapiens, UniProt O43251-10, residues 100-194)", "method": "RNA Bind-n-Seq", "form": "RNA", "matrix": "in vitro", "concentration": "365 nM", "setting": "natural RNA segment, single round, ends assumed", "reference": "no-protein control", "direction": "higher = stronger binding", "Residues (chain)": "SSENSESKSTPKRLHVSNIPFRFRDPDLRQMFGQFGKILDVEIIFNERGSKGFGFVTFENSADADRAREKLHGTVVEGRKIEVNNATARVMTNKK"}
{"Oligonucleotide": "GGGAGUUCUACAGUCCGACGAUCGGGCUGGGCAGGAGGGUGGGGUCUGCUGUGGGUUCAGAGGACUCCACCUCCUGGCUGGUUUACCUGCUGCUGCCCAUUUUCUCUGGGUACUGCUGGCCAGAGGACUUUAGUGGAAUUCUCGGGUGCCAA", "RBNS enrichment (R)": 0.34}
{"Oligonucleotide": "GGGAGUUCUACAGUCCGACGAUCGGGCCUGGAAGUUAUGUUGUUCAAAGAAGCCUGGUGGCAAUAAGGAUCUUCCCACUUUGCCACUGGAUGACUUUGGAUGGGUCACUUGUCCUCAGUUUUUCCUAGUCAUAUGGAAUUCUCGGGUGCCAA", "RBNS enrichment (R)": 0.157}
{"Oligonucleotide": "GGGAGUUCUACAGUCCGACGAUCGCCCCAUCCCUGUCCUCAUGACCCCUCGUCCACCCCCCACACACACUAUAAGGCUGAGGGCUGCCAGCAGCCCCGUCUGCCCACCAUUCCCGGCCGUGGACCAUAGUCGGUGGAAUUCUCGGGUGCCAA", "RBNS enrichment (R)": 0.491}
{"Oligonucleotide": "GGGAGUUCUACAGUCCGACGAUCAAGAAAAAGUGACCAUCUUACCUGUCAUUCAGAAUGCAAGCUAACAUCAUCCCUGUAAGCAGAGAGAACCCUAGUCACUAAAGGUGGGAGCCCUUUACCUCUCAUGUUCCUGGAAUUCUCGGGUGCCAA", "RBNS enrichment (R)": 0.476}
{"Oligonucleotide": "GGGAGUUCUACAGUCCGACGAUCGAUGGGGGGGACGCUGCUGGUAUUCGGGUUGGGCGUUUCCCAAUAAACCACCAAUCUUCAUAUUGUGCCUUCAUCUCCCUCCAAAAGCCUCUUGGGACAGUGGCCAGUCAUGGAAUUCUCGGGUGCCAA", "RBNS enrichment (R)": 0.335}
{"Oligonucleotide": "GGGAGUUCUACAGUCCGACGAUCGCCCUCGGGAGGUGGCCCAUUAUUGCUGGGAUGCGGUGUUGGUAAAGGUUUCCAGGACUGAAACUUUGAUUUUCCGGGAUAUGUUAAAUGGUACAGCCACUAAGUAUCACUGGAAUUCUCGGGUGCCAA", "RBNS enrichment (R)": 0.54}
{"Oligonucleotide": "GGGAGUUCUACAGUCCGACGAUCGAGCCACUGGGGCGCAGCAGCGCGCUGCCCCUCUGCCCCAGGGACACCGGGCGCGCAUAACCACCCCUAAUCCCGGUAUUCAGUGGUGAUGCCUAAAGGAAUGUCAGAAAUGGAAUUCUCGGGUGCCAA", "RBNS enrichment (R)": 0.258}
{"Oligonucleotide": "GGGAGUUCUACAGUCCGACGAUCCCAGGCCUGGCCUCCUGAUGCCUUUUGCAUUGCAGCUGUGUGUUUGAAAACUGAGACUCACAUCCAAGGUUUCAAACCACAAAACCUUGGCAUGACUCUGCCAUGGUGUCUGGAAUUCUCGGGUGCCAA", "RBNS enrichment (R)": 0.403}
{"Oligonucleotide": "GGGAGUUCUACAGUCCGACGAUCCUUUCACCCAGCACUGUGGGGGCCUUCAGACUCUGGGGCAGCAGACAUGCUGCUUCCCAUCAGCCAGAGGGGGUCAGGGCUGCCCUGUUGCCAAACAACUCCCUGAGGCCUGGAAUUCUCGGGUGCCAA", "RBNS enrichment (R)": 0.261}
{"Oligonucleotide": "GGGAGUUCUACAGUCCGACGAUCACAGUACUCCUCGCUGCAGGGCACUGUCCCACCGGGAUCCAGUUGCAAAGUUUGUCUUGACAGUUGAAGGCCUCGCUUAGUUGUACUGGAUUCUCAGGGAGCCCUCUGUGUGGAAUUCUCGGGUGCCAA", "RBNS enrichment (R)": 0.308}
{"Oligonucleotide": "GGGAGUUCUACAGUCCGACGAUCACAGGGCCUGGUGUUCUACCCCAUCUGGCCCCUGGCCCAUCUCUUCUGUGCCUUAGUCACAUAUGAAAGCGCCCCUCCCUGGCUCCCCAUCUGUCCCACACGCUCCCUGGUGGAAUUCUCGGGUGCCAA", "RBNS enrichment (R)": 0.367}
{"Oligonucleotide": "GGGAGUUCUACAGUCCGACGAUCUUAUUUAAGUAUGGAAUAUUCAUUUUACUCAGAAUAGCUGUUUUGUGUAUAUUGGUGUAUAUUAUAUAACUCUUUGAGCCUUUAUUGGUAAAUUCUGGUAUACAUUGAAUUGGAAUUCUCGGGUGCCAA", "RBNS enrichment (R)": 0.455}
{"data": "Block 4", "target": "Histone acetyltransferase KAT6A, winged helix 2, GST fusion (KAT6A, Homo sapiens, UniProt Q92794, residues 85-181)", "method": "protein binding microarray", "form": "double-stranded DNA, one strand shown", "matrix": "in vitro", "concentration": "not given", "setting": "8-mer, flanks averaged, mean of 2 arrays, mostly near background", "reference": "not given", "direction": "higher = stronger binding", "Target sequence (chain)": "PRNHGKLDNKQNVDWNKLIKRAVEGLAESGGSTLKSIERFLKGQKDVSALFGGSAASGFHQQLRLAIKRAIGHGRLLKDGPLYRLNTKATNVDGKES"}
{"Oligonucleotide": "CCAAGGAG", "E-score": -0.023}
{"Oligonucleotide": "GAGAATGC", "E-score": -0.136}
{"Oligonucleotide": "CTGGCTTA", "E-score": -0.0955}
{"Oligonucleotide": "CCTCTCCA", "E-score": -0.0225}
{"Oligonucleotide": "ATTATTAA", "E-score": 0.126}
{"Oligonucleotide": "ATATTCTG", "E-score": -0.214}
{"Oligonucleotide": "AATTGGAT", "E-score": -0.0161}
{"Oligonucleotide": "CACTCAGA", "E-score": 0.146}
{"Oligonucleotide": "TCCATTCA", "E-score": -0.0269}
{"Oligonucleotide": "CGACATAA", "E-score": 0.0348}
{"Oligonucleotide": "CTACGACA", "E-score": 0.0618}
{"Oligonucleotide": "GTGGTGCA", "E-score": -0.0592}
{"Oligonucleotide": "AGCCTATG", "E-score": -0.174}
{"Oligonucleotide": "CAACAAAA", "E-score": 0.223}
